Measured values gathered from unrelated publications.
A part holds a random share of what one study measured.

Block 1
Target: Fragile X messenger ribonucleoprotein 1, C-terminal low-complexity region (Fmr1, Mus musculus, UniProt P35922)
Method: RNA Bind-n-Seq
Molecule type: RNA
Matrix: in vitro
Tested at: 200 nM
Setting: whole 134-nt RNA, ends assumed
Added: 150 mM KCl
Relative to: input library
Reading: higher = stronger binding
Endpoint: log2 enrichment
All sequences stand within: GGGAGUUCUACAGUCCGACGAUC … UGGAAUUCUCGGGUGUCAAGG
ACCAUGCAGGUGGGCAUCUUUGGGAAGUGGGGCAAGGGGGGGAUAGGGAGGGGGGUAACACUUUGGGAUCAGGUGGUCCCAGGUCGUUUC: 0.546
CUGUGCUACACAUCGUAUGUACCGAAUCGGCCCCCCCGGGGCCCCCCCGGGCCCCCCCGGGAAAGUAUUAUGUUACGCCGUUCGGAUCUG: -1.21
UCAAGUCCUGUGCUACACAUCGUAUGUACCGAAUCGGGAAAAAGGGUGGGAGGGAAAGUAUUAUGUUACGCCGUUCGGAUCUGCACUUCC: 1.13
AGUCCUGUGCUACACAUCGUAUGUACCGAAUCAAAUUUUUUUAAAUUUAAACCCAAAAAAGUAUUAUGUUACGCCGUUCGGAUCUGCACU: -0.0535
CUCAAGUCCUGUGCUACACAUCGUAUGUACCGAAUCGGGAAGGAAGGAAGGGGAAAGUAUUAUGUUACGCCGUUCGGAUCUGCACUUCCA: 0.0876
ACCAUGCAGGUGGGCAUCUUUGGGAAGUGGGGCAAGGGGGGGAUUGGGAGGGGGGUAACACUUUGGGAACAGGUGGUCCCAGGUCGUUUC: 0.89
GUCCUGUGCUACACAUCGUAUGUACCGAAUCGGGGUUUGGGGUUUGGGGUUUUUGGGGAAAGUAUUAUGUUACGCCGUUCGGAUCUGCAC: 1.08

Block 2
Target: Histone acetyltransferase KAT6A, winged helix 1, GST fusion (KAT6A, Homo sapiens, UniProt Q92794, residues 1-85)
Method: protein binding microarray
Molecule type: double-stranded DNA, one strand shown
Matrix: in vitro
Tested at: not given
Setting: 8-mer, flanks averaged, mean of 2 arrays, mostly near background
Relative to: not given
Reading: higher = stronger binding
Endpoint: E-score
Residues (chain): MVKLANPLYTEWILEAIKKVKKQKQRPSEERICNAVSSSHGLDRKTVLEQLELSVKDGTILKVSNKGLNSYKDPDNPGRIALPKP
TATTACGA: 0.0247
TCGACTAA: -0.152
GCTTCTAA: -0.233
GATTTAGC: -0.0291
AGACTGTG: -0.206
TCCTCAGA: -0.208
ACGTTCCC: 0.0848
TCTATTAA: -0.0465

Block 3
Target: Protein C-ets-1 (ETS1, Homo sapiens, UniProt P14921, residues 1-441, Y397A, full length assumed)
Method: protein-binding microarray
Molecule type: double-stranded DNA, one strand shown
Matrix: in vitro
Tested at: not given
Setting: k-mer, scored over probes, only values ≥0.25
Reading: higher = stronger binding
Endpoint: E-score
Residues (chain): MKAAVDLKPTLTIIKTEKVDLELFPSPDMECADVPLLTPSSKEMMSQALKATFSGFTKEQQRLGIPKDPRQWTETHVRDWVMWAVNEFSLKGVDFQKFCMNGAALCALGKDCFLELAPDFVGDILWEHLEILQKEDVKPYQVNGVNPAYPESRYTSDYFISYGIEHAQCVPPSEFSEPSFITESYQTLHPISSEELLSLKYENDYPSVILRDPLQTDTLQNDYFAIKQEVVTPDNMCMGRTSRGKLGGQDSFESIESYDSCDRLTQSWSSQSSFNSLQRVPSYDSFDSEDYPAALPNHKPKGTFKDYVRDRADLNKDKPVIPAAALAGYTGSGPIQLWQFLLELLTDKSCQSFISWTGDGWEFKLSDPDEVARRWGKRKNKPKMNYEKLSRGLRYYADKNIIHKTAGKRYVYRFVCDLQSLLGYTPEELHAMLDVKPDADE
CGTTGGCA: 0.365
GGAAGTGA: 0.418
GAATGACA: 0.26
ACCGACAG: 0.277
ATGCGCAT: 0.353
CATCCGGG: 0.282
GACACAAA: 0.343

Further values, each from its own experiment
PhoQ, residues 284 288 289 292 302 303 SASVAL  fold induction (PhoP, residues 12 14 15 18 19 NYFTV (Escherichia coli, UniProt P23836); Sort-seq, refers to: YFP reporter; E. coli; PhoQ-PhoP variant library, added: 10 µM Mg2+; relative to: high Mg2+ state, higher = stronger signaling): 0.373
